Assay results of several laboratories.
Parts stem from different laboratories: compare values within a part only. Positions count from the first letter of the parent shown.

Study 1 — technique: RNA Bind-n-Seq; form: RNA; sample: in vitro; tested at: 365 nM; relative to: no-protein control; direction: higher = stronger binding
Target: RNA binding protein fox-1 homolog 2, RRM domain, GST-SBP tag (RBFOX2, Homo sapiens, UniProt O43251-10, residues 100-194)
Notes: natural RNA segment, single round, ends assumed
All sequences stand within: GGGAGUUCUACAGUCCGACGAUC … UGGAAUUCUCGGGUGCCAA
Residues (chain): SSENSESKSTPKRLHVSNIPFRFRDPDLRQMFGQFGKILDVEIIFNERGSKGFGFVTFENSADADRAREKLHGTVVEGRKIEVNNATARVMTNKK
Sequence | RBNS enrichment (R)
CCUGCGGCACGUUUGGGUUGGCACAGCUACCAUGAAAUGUUUUUAAUGGGAAUUCAUAAAGCAAGUUAGGAUUCACAAAUGUAGUGACCUAGUCCUUGGAGCUAAACUGG | 0.862
UUCCACCAAAGCAAAUCUGGCUCCUUCUUUAGAGAGAAGCCUACGUGGCGACUGCUCUUAUUUAAGGAAACCACCUUGGGUCUGAGAGGUGGAGAGGCCGUGGGAUUAAG | 0.247
AUCUUUAGUCCCAGCAUAGGCAGGUGAAUCUCGAGUUUGAAGCUAGCCUGGUCUAAAAAGGAAGUUCCAAGACUGCCAGGGCCACACAGAGGAAAAAAAAAACCCUCUAG | 0.319
CGAUAAUCAUCCACAUAGCCACCUCUGUCCUCGCAGUUUGGAUGCCUUUUUUUGACACCUGCGCUAGGUUCUUGUAUGCUGGCUUUUCUUAAAGGAACAGCAGAGUAGAA | 0.601
UUUUCUCUUGCACUUCACUUGUAUGUUUUACUGUGGUGGAAAAAAUACUUCAACUGAUUAUCACACUUGAAAUGCUAAUUAUCAGUGGAAUUUGUCUCCUAUUCUUAAGU | 0.581
UCACCAGAUGGGCUUCCAUUCACCUUCGGACCCAGGGCCUCCAAGCCACACAGCUAUUCUUUGGCCAGACCCUCACUACAGUAACUCAUCAACUCUGGCUCUUGUAGGGG | 0.588
UGUGCUCAGCCUUCUCUGCAGCCUCUGUGAGUUUUCAGCACGUGUGCAGCCACACAGGCUGCAACCUUCCACUCGCAGCCGCUGCUGACACCUGGCUGCCGACCUCACUC | 0.377
GGAUUGUUUCCGUUUUUGUUUGUUUUUUCUAAUAUUUGGUACUUCCCAGAAUGGUGUAAAUACUUCUUUUCAAUGUUGUGACCAAGUAUUGUCACUCAGCCAACAACUUU | 0.424

Study 2 — technique: RNA Bind-n-Seq; form: RNA; sample: in vitro; tested at: 200 nM; notes: whole 134-nt RNA, ends assumed; together with: 150 mM KCl; relative to: input library; direction: higher = stronger binding
Target: Ras GTPase-activating protein-binding protein 1, full length (G3BP1, Homo sapiens, UniProt Q13283)
UniProt Q13283, sequence (whole entry, looked up): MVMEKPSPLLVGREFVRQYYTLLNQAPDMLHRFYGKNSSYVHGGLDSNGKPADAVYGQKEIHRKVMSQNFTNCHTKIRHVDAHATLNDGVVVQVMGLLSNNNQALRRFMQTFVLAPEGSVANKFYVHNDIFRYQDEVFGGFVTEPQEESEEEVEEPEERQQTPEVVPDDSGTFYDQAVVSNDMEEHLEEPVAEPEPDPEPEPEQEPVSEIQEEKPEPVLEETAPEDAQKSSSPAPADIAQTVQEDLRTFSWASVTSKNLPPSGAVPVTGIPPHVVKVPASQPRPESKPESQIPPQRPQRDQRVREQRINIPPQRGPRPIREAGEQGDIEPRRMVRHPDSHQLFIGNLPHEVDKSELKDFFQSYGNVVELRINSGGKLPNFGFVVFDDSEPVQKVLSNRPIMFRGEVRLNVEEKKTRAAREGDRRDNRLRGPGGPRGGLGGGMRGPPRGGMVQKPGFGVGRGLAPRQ
All sequences stand within: GGGAGUUCUACAGUCCGACGAUC … UGGAAUUCUCGGGUGUCAAGG
Sequence | log2 enrichment
UCCUGUGCUACACAUCGUAUGUACCGAAUCGGGAAAAAAGGAAAAAAGGAAAAAAGGGGAAAGUAUUAUGUUACGCCGUUCGGAUCUGCA | -0.668
ACAAGUGGAGGAGAAGAACUUAGAAGAACUAGAGGAGAAAUCUACUACUCCUCCUCCGGCAGAACCUGUUUCUCUGCCACAAGAACCACC | -0.509
UGGGAGGUGGAUUUUGUUUAUUUUUUUAGCUCAUUUACAGGGGUGGGAAUUUUUUUUUAAUAUGUGUCAUGAAUAAAGUUGUUUUUGAAA | 0.0198
UCAAGUCCUGUGCUACACAUCGUAUGUACCGAAUCGGGGUUGGGUUGGGGUUGGAAAGUAUUAUGUUACGCCGUUCGGAUCUGCACUUCC | 0.237
UCCUCAAGUCCUGUGCUACACAUCGUAUGUACCGAAUCGGAGGUGGUUUGGAAAGUAUUAUGUUACGCCGUUCGGAUCUGCACUUCCAGC | -0.742
UUGGCUCGAGAGAUUGAAUCAAGCCCCCAGUACCGCCUACGGAUCGCCAUGGAGAACGACGAUGGGCGCACUGAAGAGGAGAAGCACAGU | -0.342
GCAGGAAGUAAAAACAAAUGGAAAUGCUUCGGAUAGUGGCAGGGGAAAGGGUUGCUAAGGAAAGGGUGGGAUGGGAGUGGGUAAAGAGUU | 1.04
UGGCCCUGGUGGCAUGCGGGGAGGAAGAGGUGGCCUCAUGGAUCGUCGUGGUCCCGGUGGAAUGUUCAGAGGUGGCCGUGGUGGAGACAG | 0.217
GUCCUGUGCUACACAUCGUAUGUACCGAAUCGGGAAAAAGGGAAAAAGGGGAAAAAGGGAAAGUAUUAUGUUACGCCGUUCGGAUCUGCA | -0.253

Study 3 — technique: DHFR PCA, deep sequencing; sample: yeast; together with: (+)-ABA 2500 µM; relative to: wild-type fitted maximum; direction: higher = stronger binding
Target: ABI1, truncated, D143A, DHFR fusion (Arabidopsis thaliana)
Notes: methotrexate growth selection, single substitutions
Starting sequence: PYL1, truncated, DHFR fusion (Arabidopsis thaliana); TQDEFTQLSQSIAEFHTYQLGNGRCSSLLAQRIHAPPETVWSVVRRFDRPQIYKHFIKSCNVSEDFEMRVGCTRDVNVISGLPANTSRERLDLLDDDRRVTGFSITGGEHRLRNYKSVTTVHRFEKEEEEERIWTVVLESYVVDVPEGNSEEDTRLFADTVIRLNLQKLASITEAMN; partner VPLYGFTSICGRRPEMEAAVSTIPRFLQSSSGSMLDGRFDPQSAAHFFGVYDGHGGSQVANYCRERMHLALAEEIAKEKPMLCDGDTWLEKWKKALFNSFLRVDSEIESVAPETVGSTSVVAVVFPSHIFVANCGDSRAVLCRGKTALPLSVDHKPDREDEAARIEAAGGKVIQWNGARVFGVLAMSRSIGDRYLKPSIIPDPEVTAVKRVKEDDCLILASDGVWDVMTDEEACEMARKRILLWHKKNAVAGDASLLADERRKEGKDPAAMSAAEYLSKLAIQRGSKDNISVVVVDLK
Change | relative binding score [%]
V70N | 76.2
L156W | 93
D65V | 93.8
R132V | 100
R24T | 100
T120A | 60.8
R90N | 78
C72F | 95.4
P83M | 53.1
R155P | 20.4
V62Y | 89.4
D3W | 87.3
H122W | 35.4
A35G | 90.8
T39F | 91.7
I52Y | 93.8
A175L | 92.8
R163Y | 64.4
P146F | 65.2
V44F | 36.6

Study 4 — technique: protein-binding microarray; form: double-stranded DNA, one strand shown; sample: in vitro; tested at: 2200 nM top; notes: 60-bp whole probe; together with: salmon DNA 0.4 mg/ml; relative to: random background probes; direction: higher = stronger binding; all sequences stand within: GCCTAGCAC … GTCTTGATTCGCTTGACGCTGCTG
Target: Interferon regulatory factor 7, full length, phosphomimetic (IRF7, Homo sapiens, UniProt Q92985, residues 1-503, S471D/S472D/S475D/S476D/S477D/S483D/S484D/S487D)
Target sequence (chain): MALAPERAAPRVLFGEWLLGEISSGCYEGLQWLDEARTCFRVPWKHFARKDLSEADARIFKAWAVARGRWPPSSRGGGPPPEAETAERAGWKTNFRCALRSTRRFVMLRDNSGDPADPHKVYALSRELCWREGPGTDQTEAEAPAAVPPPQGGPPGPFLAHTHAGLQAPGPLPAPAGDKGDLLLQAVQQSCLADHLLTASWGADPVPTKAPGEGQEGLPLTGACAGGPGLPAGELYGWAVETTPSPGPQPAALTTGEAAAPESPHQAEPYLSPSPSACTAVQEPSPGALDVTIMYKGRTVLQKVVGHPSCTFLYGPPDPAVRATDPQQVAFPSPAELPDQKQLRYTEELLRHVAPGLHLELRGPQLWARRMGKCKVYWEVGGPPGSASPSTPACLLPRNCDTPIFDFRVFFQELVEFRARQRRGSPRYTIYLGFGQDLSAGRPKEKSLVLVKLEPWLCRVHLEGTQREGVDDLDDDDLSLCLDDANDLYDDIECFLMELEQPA
Sequence | fitted relative affinity [z-score]
TCATAGGTTTCACTTTCCACTGTGCTA | 6.37
TTATGACTGCTACTGCTTTAGTGCTAG | 0.363
TTAGGTTTCGGTATCGGGTAGTGCTAG | 7.73
TTAGATTTCGGGATTGGATTAGTGCTA | 1.73
GATGGCCTCTTGCTCAGCCCGTGCTAG | -0.573
TTAGGTTTCGACTATCGGTTGGTGCTA | 3.78
GGACGGCAGTGCACACAGTGGTGCTAG | -0.94
GACGGTCTCGGTTTCGGGTCGTGCTAG | 6.86
TTAGATGTCAGTCTCGATTAGTGCTAG | 0.362
GACGGACTGGGATATCGGGACGTGCTA | -0.967
TCTCTTTCCTTACTTCCCAATGTGCTA | 3.58
TCAACTTTTATTTTCAGACTGTGCTAG | 1.71
AATGATTGGTTGAACATGAAGTGCTAG | 0.0253
TCAAAATTTTTTTTCTAACTGTGCTAG | -0.36
TCATATATTTTAATCACACTGTGCTAG | 0.662
TTAGGCTTCGGACTGGGTTAGTGCTAG | -0.479
GACGAATTGAGTCTCGAGACGTGCTAG | 0.00454

Some of these lines once more (study 4):
Sequence | fitted relative affinity [z-score]
TTAGATGTCAGTCTCGATTAGTGCTAG | 0.362
GACGGACTGGGATATCGGGACGTGCTA | -0.967
TCTCTTTCCTTACTTCCCAATGTGCTA | 3.58
TCAACTTTTATTTTCAGACTGTGCTAG | 1.71
AATGATTGGTTGAACATGAAGTGCTAG | 0.0253
TCAAAATTTTTTTTCTAACTGTGCTAG | -0.36
